Experimental data of several laboratories.
Numbered parts are unrelated; each lists some results of a single study. Substitutions count along the parent as printed.

Set 1
Target: Fragile X messenger ribonucleoprotein 1, C-terminal low-complexity region (Fmr1, Mus musculus, UniProt P35922)
Technique: RNA Bind-n-Seq
Form: RNA
Sample: in vitro
Tested at: 200 nM
Setting: whole 134-nt RNA, ends assumed
Added: 150 mM LiCl
Reference: input library
Direction: higher = stronger binding
All molecules: 7-deaza-guanosine replaces G
Oligonucleotide	log2 enrichment
GGGAGUUCUACAGUCCGACGAUCGUCCUGUGCUACACAUCGUAUGUACCGAAUCGGGCCCCCCGGGCCCCCCGGCCCCCCGGAAAGUAUUAUGUUACGCCGUUCGGAUCUGCAUGGAAUUCUCGGGUGUCAAGG	0.894
GGGAGUUCUACAGUCCGACGAUCUGGGAGGUGGAUUUUGUUUAUUUUUUUAGCUCAUUUCCAGGGGUGGGAAUUUUUUUUUAAUAUGUGUCAUGAAUAAAGUUGUUUUUGAAAUGGAAUUCUCGGGUGUCAAGG	0.00818
GGGAGUUCUACAGUCCGACGAUCUGGCCCUGGUGGCAUGCGGGGACGAAGAGGUGGCCUCAUGGAUCGUGGUGGUCCCGGUGGAAUGUUCAGAGGUGGCCGUGGUGGAGACAGUGGAAUUCUCGGGUGUCAAGG	0.0336

Set 2
Target: Sal-like protein 4, full length isoform B (SALL4, Homo sapiens, UniProt Q9UJQ4-2, residues 1-616)
Technique: universal PBM
Form: double-stranded DNA, one strand shown
Sample: in vitro
Tested at: not given
Setting: 8-mer, flanks averaged, mean of replicates
Direction: higher = stronger binding
Residues (chain): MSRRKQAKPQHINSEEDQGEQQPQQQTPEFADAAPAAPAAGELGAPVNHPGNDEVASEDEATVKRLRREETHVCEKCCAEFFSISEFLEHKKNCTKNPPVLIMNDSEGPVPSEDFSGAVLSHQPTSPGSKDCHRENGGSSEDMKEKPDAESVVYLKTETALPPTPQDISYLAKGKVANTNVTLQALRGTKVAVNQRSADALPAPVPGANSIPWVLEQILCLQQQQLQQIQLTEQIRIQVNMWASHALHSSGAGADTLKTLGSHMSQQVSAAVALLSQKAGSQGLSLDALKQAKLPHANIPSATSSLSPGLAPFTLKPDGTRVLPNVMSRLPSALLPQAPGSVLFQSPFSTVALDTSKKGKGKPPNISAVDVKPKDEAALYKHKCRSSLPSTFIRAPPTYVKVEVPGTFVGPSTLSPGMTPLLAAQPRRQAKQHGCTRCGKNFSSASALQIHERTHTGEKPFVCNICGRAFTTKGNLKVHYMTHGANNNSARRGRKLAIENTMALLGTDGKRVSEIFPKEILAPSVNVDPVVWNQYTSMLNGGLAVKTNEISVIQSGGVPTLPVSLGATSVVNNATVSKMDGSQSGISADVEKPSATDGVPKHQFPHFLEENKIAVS
Oligonucleotide	E-score
GGATACGA	0.08
GTGTCTGA	-0.0623
CAGTCGAA	-0.16
CCAAATAC	-0.0687

Set 3
Target: CCNE2, cyclin fold, Cln2 fusion (human)
Technique: yeast growth competition, sequencing
Sample: yeast
Setting: strong parent motif
Reference: not given
Direction: higher = stronger binding
Parent: E2F1 docking peptide (human); PPVKRRLDLETDH; partner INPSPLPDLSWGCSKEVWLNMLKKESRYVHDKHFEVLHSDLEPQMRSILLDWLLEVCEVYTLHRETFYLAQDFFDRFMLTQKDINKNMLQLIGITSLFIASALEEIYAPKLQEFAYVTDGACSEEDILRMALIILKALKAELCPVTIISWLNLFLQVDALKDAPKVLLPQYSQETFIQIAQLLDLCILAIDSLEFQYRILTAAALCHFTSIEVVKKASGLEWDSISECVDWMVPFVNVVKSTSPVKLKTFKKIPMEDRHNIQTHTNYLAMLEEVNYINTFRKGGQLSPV
Variant	normalised enrichment score
PPVKGRLDLETDH [R5G]	-0.323
YPVKRRLDLETDH [P1Y]	2.19
PPVKRRLGLETDH [D8G]	1.97

Single results of other studies
Substance	target	test	system	conditions	how to read	measurement	value
PhoQ, residues 284 288 289 292 302 303 TTSMTC	PhoP, residues 12 14 15 18 19 NIMAP (Escherichia coli, UniProt P23836)	Sort-seq, refers to: YFP reporter	E. coli	PhoQ-PhoP variant library, added: 10 µM Mg2+	reference: high Mg2+ state, higher = stronger signaling	fold induction	0.719
